Results collected from several papers.
± marks the error that the study gave.

CCCCCCCCCCCCCCCCCCCCCCCCCC(=O)O[C@H](CCCCCCCCCCCCCC)[C@@H](O)[C@H](CO[C@H]1O[C@H](CO)[C@H](O)[C@H](O)[C@H]1O)NC(=O)OCc1ccc(NC(=O)[C@H](CCCNC(N)=O)NC(=O)[C@@H](NC(=O)CCCCCn2cc(CCC(=O)N[C@@H](Cc3ccccc3)C(=O)N[C@@H](Cc3ccccc3)C(=O)N[C@@H](CCCNC(=N)N)C(=O)N[C@@H](CCCCN)C(=O)N[C@@H](CO)C(=O)N[C@H](C(=O)N[C@H](C(=O)N[C@@H](CC(N)=O)C(=O)N[C@@H](Cc3ccccc3)C(=O)N[C@@H](CCC(=O)O)C(=O)N[C@@H](CCCCN)C(=O)N[C@@H](CC(C)C)C(=O)O)[C@@H](C)CC)[C@@H](C)CC)nn2)C(C)C)cc1
remaining α-GalCer level (HPLC-ESI-MS/MS; aqueous ammonium formate 50 mM; 10 µg/mL, eight days, pH 3.0, 20 °C): < 0.05%

CC(C)C[C@H](NC(=O)[C@@H]1CCCN1C(=O)[C@H](CCCCN)NC(=O)[C@@H](N)CO)C(=O)N1CCC[C@H]1C(=O)N[C@@H](CCC(=O)O)C(=O)N[C@H](C(=O)N[C@H](C(=O)N[C@@H](CC(=O)O)C(=O)N[C@@H](CCC(=O)O)C(=O)N[C@@H](Cc1ccc(O)cc1)C(=O)NCC(=O)NCCOCCOCCOCCOCCOCCOCCOCCOCCOCCOCCOCCOCCOCCOCCOCCOCCOCCOCCOCCOCCOCCOCCOCCOCCC(=O)N[C@@H](CCCCNC(=O)CC[C@H](C(=O)O)N1CCN(CC(=O)O)CCN(CC(=O)O)CC1)C(=O)N1CCN(CCCN(C)c2ccc3nccc(C(=O)NCC(=O)N4CC(F)(F)C[C@H]4C#N)c3c2)CC1)[C@@H](C)O)C(C)C [copper-64 labelled]
SUVmean (PET; NMRI nude mouse, HT-1080 xenograft, hFAP-negative tumour; intravenous): 0.88 ± 0.34 SUV

CCCCCCCCCCCCCCC(=O)N[C@@H](CCCCNC(=O)CN1CCN(CC(=O)O)CCN(CC(=O)O)CCN(CC(=O)O)CC1)C(=O)N[C@@H](CCC(=O)NCCCC[C@@H]1NC(=O)[C@@H](Cc2ccccc2)NC(=O)[C@H](CC(=O)O)NC(=O)CNC(=O)[C@H](CCCNC(=N)N)NC1=O)C(=O)NCCCC[C@@H]1NC(=O)[C@@H](Cc2ccccc2)NC(=O)[C@H](CC(=O)O)NC(=O)CNC(=O)[C@H](CCCNC(=N)N)NC1=O [indium-111 labelled]
blood radioactivity (female BALB/c nude mice, U-87 MG xenograft, blood; intravenous, dose not given, 4 h): 1.29 ± 0.12 %ID/g

CC[C@H](C)[C@@H]([C@@H](CC(=O)N1CCC[C@H]1[C@H](OC)[C@@H](C)C(=O)N[C@H](C)[C@@H](O)c1ccccc1)OC)N(C)C(=O)[C@@H](NC(=O)[C@H](C(C)C)N(C)C(=O)OCc1ccc(NC(=O)[C@H](CCCNC(N)=O)NC(=O)[C@@H](NC(=O)CCCCCN2C(=O)CC(SC[C@H](NC(=O)[C@H](CC(=O)O)NC(=O)[C@H](Cc3ccc(O)cc3)NC(=O)[C@H](Cc3c[nH]c4ccccc34)NC(=O)[C@@H](N)CCCNC(=N)N)C(=O)O)C2=O)C(C)C)cc1)C(C)C (stereo partly drawn)
concentration (C57BL/6 mouse, healthy, lung; intraperitoneal, 2.5 mg/kg, 24 h): not detected

N=C(N)NCCC[C@@H]1NC(=O)[C@H](CCCCNC(=O)CCC(NC(=S)Nc2ccc(CC3CN(CC(=O)O)CCN(CC(=O)O)CCN(CC(=O)O)CCN3CC(=O)O)cc2)C(=O)NCCCC[C@@H]2NC(=O)[C@@H](Cc3ccc(O)cc3)NC(=O)[C@H](CC(=O)O)NC(=O)CNC(=O)[C@H](CCCNC(=N)N)NC2=O)NC(=O)[C@@H](Cc2ccc(O)cc2)NC(=O)[C@H](CC(=O)O)NC(=O)CNC1=O (stereo partly drawn) [scandium-44 labelled]
tissue uptake (ex vivo γ-counting; female athymic nude mice, U-87 MG xenograft, heart; intravenous, 4 h): 0.18 ± 0.09 %ID/g

CCCC[C@H](NC(=O)CN1CCC(NC(=O)CN2CCN(CC(N)=O)CCN(CC(N)=O)CCN(CC(N)=O)CC2)CC1)C(=O)N[C@H]1CC(=O)NCCCC[C@@H](C(N)=O)NC(=O)[C@H](Cc2c[nH]c3ccccc23)NC(=O)[C@H](CCCNC(=N)N)NC(=O)[C@@H](Cc2ccccc2)NC(=O)[C@H](Cc2c[nH]cn2)NC1=O [lead-212 labelled]
tissue uptake (male C57BL/6J mice, B16-F10 tumour, kidneys; intravenous, 20 pmol, 2 h, ex vivo): 7.11 ± 1.96 %IA/g

C[C@H](NC(=O)[C@H](CCCNC(=N)N)NC(=O)[C@@H](N)Cc1ccccc1)C(=O)N[C@H]1CSCc2cccc(n2)CSC[C@@H](C(=O)N[C@H](C(=O)NCC(=O)N[C@@H](CO)C(=O)N[C@@H](Cc2ccc(O)cc2)C(=O)N[C@@H](Cc2c[nH]cn2)C(=O)N[C@@H](CCCCNC(=O)CN2CCN(CC(=O)O)CCN(CC(=O)O)CCN(CC(=O)O)CC2)C(=O)O)[C@@H](C)O)NC(=O)[C@H](CC(=O)O)NC(=O)[C@H](Cc2ccccc2)NC(=O)[C@@H]2CCCN2C1=O [gallium-68 labelled]
intact fraction (radio-HPLC; PBS; 2 h, 37 °C): > 99%

CC(=O)N[C@@H](CC(C)C)C(=O)N[C@H](C(=O)N[C@@H](Cc1ccccc1)C(=O)N[C@]1(C)CCCCCC/C=C/CCC[C@@](C)(C(=O)N[C@@H](C)C(=O)N[C@@H](C)C(=O)N[C@@H](C)C(=O)N[C@@H](C)C(=O)N[C@@H](C)C(=O)N[C@H](C)C(N)=O)NC(=O)[C@H](CC(C)C)NC(=O)[C@H](CCCCNC(=O)CCNC(=O)C[C@@H]2N=C(c3ccc(Cl)cc3)c3c(sc(C)c3C)-n3c(C)nnc32)NC(=O)[C@H](C)NC(=O)[C@H](Cc2c[nH]c3ccccc23)NC(=O)[C@H](Cc2ccc(O)cc2)NC(=O)[C@H](C)NC1=O)[C@@H](C)O
Cmax (male C57BL/6 mouse, plasma; intraperitoneal, 3 mg/kg, single dose): 940 nM

CCCC[C@H](NC(=O)CN1CCC(NC(=S)Nc2ccc(C[C@H]3CN(CC(N)=O)CCN(CC(N)=O)CCN(CC(N)=O)CCN3CC(N)=O)cc2)CC1)C(=O)N[C@H]1CC(=O)NCCCC[C@@H](C(N)=O)NC(=O)[C@H](Cc2c[nH]c3ccccc23)NC(=O)[C@H](CCCNC(=N)N)NC(=O)[C@@H](Cc2ccccc2)NC(=O)[C@H](Cc2c[nH]cn2)NC1=O [lead-203 labelled]
tissue uptake (male C57BL/6J mice B16-F10 tumour, tumour; intravenous, 20 pmol, 2 h): 1.68 ± 0.26 %ID/g
